Measured values pooled from the literature.
Each numbered part is a random draw from the data of one study; scales do not carry over between parts.

Series 1 — organism: SARS-CoV-2 Wuhan spike VSV pseudovirus; observed: pseudovirus entry; tested at: concentration not given
SMILES	inhibition [%]
COC(=O)CCS(=O)(=O)c1nc(-c2cccs2)cc(C(F)(F)F)n1	47
Cc1ccc(N2CCN(C(=O)CC3(CC4=Nc5ccccc5S(=O)(=O)N4)CCCC3)CC2)c(C)c1	40
CC(C)C1CN(C(=O)c2ccc3cccnc3c2O)CCCN1CC1CC1 (stereo not drawn)	51
ClC1(Cl)CC1CNc1ncnc2sc3c(c12)CCC3 (stereo not drawn)	42
Cc1ccsc1C(=O)N1CCN2C(=O)CNC(=O)C2C1 (stereo not drawn)	39
ClC(Cl)(Cl)c1nc2ccccc2n2nncc12	41

Single results of other studies
rep nsp12 RdRp: Replicase polyprotein 1ab, nsp12 RdRp (rep, Severe acute respiratory syndrome coronavirus 2, UniProt P0DTD1)
rep papain-like protease: Replicase polyprotein 1ab, papain-like protease (rep, Severe acute respiratory syndrome coronavirus 2, UniProt P0DTD1)
rep nsp14: Replicase polyprotein 1ab, nsp14 (rep, Severe acute respiratory syndrome coronavirus 2, UniProt P0DTD1)
SMILES	target	assay	test system	conditions	how to read	endpoint	result
O=C(NCc1ccc(S(=O)(=O)c2cc(F)cc(F)c2)cc1)c1ccc2nccn2c1	rep nsp12 RdRp	binding, biolayer interferometry		concentration not given		BLI response	0 nm
N#Cc1ncccn1	rep papain-like protease			concentration not given, C111S mutant	baseline: positive control	activity	19.6%
O=C(NC1CCN(c2ncnc3[nH]cnc23)CC1)c1cccc(S(=O)(=O)N2CCCCCC2)c1	rep nsp14	enzyme activity	SARS-CoV-2	concentration not given		inhibition	20.7%
CCC[C@H](N[C@H]1CCc2cc(F)cc(F)c2C1)C(=O)Nc1cn(C(C)(C)CNCC(C)(C)C)cn1	rep papain-like protease			concentration not given, C111S mutant	baseline: positive control	activity	18.2%
Nc1nc2c(ncn2[C@@H]2O[C@H](COP(=O)(O)OP(=O)(O)OP(=O)(O)OC[C@H]3O[C@@H](n4cnc5c(=O)[nH]c(N)nc54)[C@H](O)[C@@H]3O)[C@@H](O)[C@H]2O)c(=O)[nH]1	rep nsp14	thermal shift		250 µM		ΔTm	0.3 °C
COc1cc(C(=O)NS(=O)(=O)c2ccccc2C)ccc1Cc1cn(C)c2ccc(NC(=O)OC3CCCC3)cc12	rep nsp12 RdRp	binding, biolayer interferometry		50 µM		BLI response	0.31 nm

For quick reference, copied from above (series 1):
SMILES	inhibition [%]
Cc1ccsc1C(=O)N1CCN2C(=O)CNC(=O)C2C1 (stereo not drawn)	39
ClC(Cl)(Cl)c1nc2ccccc2n2nncc12	41
